Measurements from different studies.
Compare with care: the assays were run in different laboratories. ± gives the spread as reported.

| SMILES | target or system | test | test system | setting | how to read | measurement | result |
| --- | --- | --- | --- | --- | --- | --- | --- |
| O=C(N[C@@H](CC1CCCCC1)C(=O)N[C@@H](C[C@@H]1CCNC1=O)C(=O)C(=O)NC1CC1)OCc1cccc(Cl)c1 | CRFK | cell growth or viability | – | 36 h | – | CC50 | > 150 µM |
| CCCCCC(=O)OCn1cc(F)c(=O)[nH]c1=O | – | – | HCl or phosphate buffer | 80 µg/mL, pH 1.2, 37 °C, chemical stability | – | half-life | 36.2 ± 0.3 h |
| Cc1cccc(-c2ccc3nc(NC(=O)C4CCCO4)nn3c2)c1 (stereo not shown) | crk3 (Leishmania mexicana, UniProt O15851) | enzyme activity, inhibitor, radiometric | – | – | – | IC50 | 12 µM |
| O=C[C@H](C[C@@H]1CCNC1=O)NC(=O)[C@H](CC1CCCCC1)NS(=O)(=O)c1cccc(Cl)c1 | feline coronavirus | – | CRFK, FIPV-1146 | – | relative to: CC50 over EC50 | therapeutic index | > 417 |
| O=C(O)COc1ccc(Br)cc1C=NNC(=O)Cc1ccccc1 (mixture of isomers) | – | – | mouse, serum | oral, 100 mg/kg, 48 h | – | urea | 37.8 ± 2.23 mg/dL |
| Cc1cccc(-c2ccc3nc(NC(=O)CC4CCCC4)nn3c2)c1 | Cyclin-dependent kinase 2, with cyclin A (CDK2, Homo sapiens, UniProt P24941) | enzyme activity, inhibitor | – | – | – | IC50 | > 100 µM |
| CC(C)C[C@H](NC(=O)[C@@H](NC(=O)[C@H](CCONC(=N)N)NC(=O)OCc1ccccc1)C1CCCCC1)[C@@H](O)CC(=O)NCCc1ccccc1 | Plasmodium falciparum | LDH growth | parental resistant | 72 h | relative to: 3D7 | EC50 fold change | 3 fold |
